Results from different studies.
Numbered parts are unrelated; each lists some results of a single study.

Study 1 — method: protein-binding microarray; molecule type: double-stranded DNA, one strand shown; matrix: in vitro; concentration: 940 nM top; notes: 60-bp whole probe; added: salmon DNA 0.4 mg/ml; reference: random background probes; direction: higher = stronger binding; constant ends, left off below: GCCTAGCAC … GTCTTGATTCGCTTGACGCTGCTG
Target: Interferon regulatory factor 5, full length, phosphomimetic (IRF5, Homo sapiens, UniProt Q13568-2, residues 1-514, S451D/S453D/S456D/S462D)
| Strand | fitted relative affinity [z-score] |
| --- | --- |
| TTAGGTTTCGGACTGAGTTAGTGCTAG | 6.94 |
| TTAGAACTGAGTATCGATTAGTGCTAG | 4.49 |
| GACGGTTTCCTCCTGCTGACGTGCTAG | 1.29 |
| TTAGATTTCAGACTGGATTTGTGCTAG | -0.389 |
| TTAGGTTTCCTTCTCCCTTAGTGCTAG | 2.2 |
| GGTGGTCTGGGACCCTCCCCGTGCTAG | -0.424 |
| GACGGACTGGACTTTCGGTACGTGCTA | 2.12 |
| GACGGTCTCCTGCTCCTGACGTGCTAG | -0.144 |
| TTAGACCTGAGACTGGATTAGTGCTAG | -0.449 |
| GATGGTCTCCTTTTCCTGACGTGCTAG | 0.831 |
| TTAGATCTCAGGATCGATTAGTGCTAG | 0.182 |
| TTAGGTATCCTTTTCCCTTAGTGCTAG | 0.998 |
| GACGGTTTTCTTATCCTGACGTGCTAG | 1.12 |
| GACGAGTTCGGGTTTCGAGACGTGCTA | 2.09 |
| TCTTTTATGGTATTTTTTTGGTGCTAG | 1.91 |
| TTAGGTATCGGTATCGGTTTGTGCTAG | 11.3 |

Study 2 — method: universal PBM; molecule type: double-stranded DNA, one strand shown; matrix: in vitro; concentration: not given; direction: higher = stronger binding
Target: Sal-like protein 4, full length isoform B (SALL4, Homo sapiens, UniProt Q9UJQ4-2, residues 1-616)
Notes: 8-mer, flanks averaged, mean of replicates
Residues (chain): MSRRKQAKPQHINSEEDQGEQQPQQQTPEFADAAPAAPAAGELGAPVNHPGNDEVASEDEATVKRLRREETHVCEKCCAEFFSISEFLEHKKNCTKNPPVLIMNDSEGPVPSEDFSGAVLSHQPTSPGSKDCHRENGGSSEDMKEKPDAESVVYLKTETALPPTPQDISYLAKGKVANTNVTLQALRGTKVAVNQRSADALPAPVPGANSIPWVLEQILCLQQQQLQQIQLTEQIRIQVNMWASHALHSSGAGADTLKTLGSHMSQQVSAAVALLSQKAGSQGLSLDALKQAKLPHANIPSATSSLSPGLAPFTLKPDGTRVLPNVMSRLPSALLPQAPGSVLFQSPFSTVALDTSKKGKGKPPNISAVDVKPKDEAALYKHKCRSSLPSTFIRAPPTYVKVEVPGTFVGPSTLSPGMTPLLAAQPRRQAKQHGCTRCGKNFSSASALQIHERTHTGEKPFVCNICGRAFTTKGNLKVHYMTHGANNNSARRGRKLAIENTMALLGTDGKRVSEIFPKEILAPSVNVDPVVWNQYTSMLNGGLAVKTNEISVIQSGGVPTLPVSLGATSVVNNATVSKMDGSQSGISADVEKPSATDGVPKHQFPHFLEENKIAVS
| Strand | E-score |
| --- | --- |
| ACACCACG | -0.103 |
| CGGGCCCA | -0.282 |
| GAGTAGTA | 0.098 |
| ACTAACGG | 0.0531 |
| GGCCAGCC | -0.367 |
| CAAAATAG | 0.072 |
| ACCCGAGA | -0.258 |
| ATTAGGCA | 0.154 |
| CATTGATA | 0.114 |
| AAGCGCTA | 0.0352 |
| CGACGCTA | -0.103 |
| AACCACAG | -0.025 |
| CTGATCCC | -0.156 |
| AACTAGTG | 0.0688 |
| CTCGTAAC | 0.0345 |
| GATATACC | 0.201 |
| ACTTAGAC | 0.0846 |
| ACTCCGCT | -0.174 |
| GTAGCGAA | 0.0488 |
| GAGGGCAC | -0.191 |
| GCGATAAC | 0.0727 |
| ATGGTGGG | -0.222 |
| TAAGGCAA | 0.0676 |
| CTTGCCTA | 0.00532 |
| AAGACTGT | 0.0275 |

Study 3 — target: UBE2I UBC core domain (UniProt P63279); method: yeast two-hybrid; matrix: yeast; notes: mostly zero background; reference: not given; direction: higher = stronger interaction
B1: TRIM38 RING domain (UniProt O00635); chain STKKMMEEATCSICLSLMTNPVSINCGHSYCHLCITDFFKNPSQKQLRQETFCCPQCRAPFHMDSLRP
B2: RNF32 RING domain (UniProt Q9H0A6); chain SLLQGDSVQPCPICKEEFELRPQVLLSCSHVFHKACLQAFEKFTNKKTCPLCRKNQYQTRVIH
B3: ANKIB1 RING domain (UniProt Q9P2G1); chain LSPGDLDTSLCDICMCSISVFEDPVDMPCGHDFCRGCWESFLNLKIQEGEAHNIFCPAYDCFQLVPVDIIE
B4: NSMCE1 RING domain (UniProt Q8WV22); chain RETYPDAVKICNICHSLLIQGQSCETCGIRMHLPCVAKYFQSNAEPRCPHCNDYWPHEIPKV
B5: RNF14 RING domain (UniProt Q9UBS8); chain IKCFNSKLFLCSICFCEKLGSECMYFLECRHVYCKACLKDYFEIQIRDGQVQCLNCPEPKCPSVATPGQVK
| Molecule | lacZ reporter activity |
| --- | --- |
| FLKKLEQSFMCVCCQELVYQPVTTECFHNVCKDCLQRSFKAQVFSCPACRHDLGQNYIMI (UHRF2 RING domain (UniProt Q96PU4)) | 0 |
| B1 (TRIM38 RING domain) | 0 |
| B2 (RNF32 RING domain) | 0 |
| B3 (ANKIB1 RING domain) | 0 |
| QLQDEEDDSLCRICMDAVIDCVLLECGHMVTCTKCGKRMSECPICRQYVVRAVHVF (RNF34 RING domain (UniProt Q969K3)) | 0 |
| B4 (NSMCE1 RING domain) | 0 |
| KIKDLNEHIVCCLCAGYFVDATTITECLHTFCKSCIVKYLQTSKYCPMCNIKIHETQPLL (PCGF1 RING domain (UniProt Q9BSM1)) | 0 |
| SYEDKSNDFVCPICFDMIEEAYMTKCGHSFCYKCIHQSLEDNNRCPKCNYVVDNIDHLY (COP1 RING domain (UniProt Q8NHY2)) | 0 |
| B5 (RNF14 RING domain) | 0 |

Study 4 — method: protein binding microarray; molecule type: double-stranded DNA, one strand shown; matrix: in vitro; concentration: not given; reference: not given; direction: higher = stronger binding
Target: Histone acetyltransferase KAT6A, both winged helices, GST fusion (KAT6A, Homo sapiens, UniProt Q92794, residues 1-181)
Notes: 8-mer, flanks averaged, mean of 2 arrays, mostly near background
Construct (chain): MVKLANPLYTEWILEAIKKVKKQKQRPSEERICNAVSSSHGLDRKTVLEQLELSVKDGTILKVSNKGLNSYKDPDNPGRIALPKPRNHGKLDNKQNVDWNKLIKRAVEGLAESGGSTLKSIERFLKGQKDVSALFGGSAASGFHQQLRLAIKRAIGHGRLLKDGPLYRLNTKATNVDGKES
| Strand | E-score |
| --- | --- |
| GATCATAC | 0.0718 |
| CTGCAAAG | -0.096 |
| AAAATGAC | -0.0459 |
| CATGATGC | 0.0338 |
| AGACTAAG | -0.0681 |
| CTGCTGAC | -0.0454 |
| AGTCGTCG | -0.00053 |
| CATCTACC | -0.0523 |
| ACATTTAA | -0.00773 |
| AACCCCTT | -0.151 |
| AATCGAGC | -0.129 |
| TCTAAAGA | -0.0541 |
| CAGAATAC | -0.0493 |
| CCCGTGGC | 0.241 |
| ACCAAATA | -0.094 |
| ATTAAAAC | 0.0148 |
| CACCGCGG | 0.361 |
| CACATGGA | -0.167 |
| ACATTGAT | 0.141 |
| ACAAAAGG | -0.0323 |
| AGCTCGAC | -0.0955 |
| ACGTGCCC | 0.0458 |
| CTGCGAAA | -0.0516 |
| AATGATGT | -0.00571 |
| GACTATGC | -0.0152 |

Study 5 — method: RNA Bind-n-Seq; molecule type: RNA; matrix: in vitro; concentration: 365 nM; reference: no-protein control; direction: higher = stronger binding
Target: RNA binding protein fox-1 homolog 2, RRM domain, GST-SBP tag (RBFOX2, Homo sapiens, UniProt O43251-10, residues 100-194)
Notes: natural RNA segment, single round, ends assumed
Constant ends, left off below: GGGAGUUCUACAGUCCGACGAUC … UGGAAUUCUCGGGUGCCAA
Target sequence (chain): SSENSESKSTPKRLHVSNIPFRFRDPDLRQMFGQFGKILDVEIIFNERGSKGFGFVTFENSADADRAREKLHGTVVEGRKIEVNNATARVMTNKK
| Strand | RBNS enrichment (R) |
| --- | --- |
| CUUCCACUCAAAUCUGCUCAGGUUUGUUAUGCAGCGAUUGUGGCUGUCCGCUGUAUCUCCUCUGUGGGAGUAAACGCCACACUGUGUUUGUGAGUUCAGCACAGGGCCCA | 0.317 |
| AAGUGUGGGUUUUGCCCUGAUUGUUGCAAAUACAAUUUCCACCUUCUGGAAAGGUAGGUUUGCUGUGGAGGAAAUAAUGUACUAGAUCAUUGUCACAGAAAAACCAACUA | 0.345 |
| AUUGUUCACGGAAAACAGAUCUUCUUCUCUCUUGUCCACCUAUUAAUUGUUUACAAUAUUUGUACAUCUAUGCAAAAUACUUGAAUGGGCCAUGGUGCCUUUUUUCCUUG | 0.774 |
| UUGAGUCAGUCCUCUUAGGCUGCACCUCCAGCCUCUGCAGAUCCCCCCUCAUUUCCCAUGGAUGGUGGGACCCCAUUAUUCUCUCAUCUCGGCAUUCAGGGAACAGUUUC | 0.327 |
| AGAGAAGAUGGCCACCAGCUGGCUUCCUAGAUAUUUUAAACUUUUGUUCUUUAAUAUGCUGUCCAUGGCUGAGUUUAUUAGUACAUGGGCUUAGUGACCACAAAAUAUUU | 0.455 |
| GUGGUUUUUCCUAACUUACUUGCUAUCAACAUACCACUGGAAAAAAUCUCUGAGGUAUCAAAGAAUUUCUCCAUGAAGCCAGAUAAGUAUUCAAGAAUGCAUGGACCAGU | 2.78 |
| CCCAUGUGCUAUCAUUAUAAUCAUGCAGACUUUUACUUCAGUUGCUUCUGAAAGCACUAAGUUUUCAGUUUUGGAGUUACUUCUCCCUUGCCUCUGACACACUGCACACG | 0.26 |
| CCCCGCCAUGCUGCUCUGCUUGUCACAGACGUCCUGUGGGUUGGUUGUGACAGCAUCUUCACCACUUUGGGGACCAUCCAGAGUGGGGGAGUGGGGGAGACUUCACCCUG | 0.244 |
| ACCUGCCCCCAGAGCUGAGGCCAUCUGCAAGCCCCUGCCCAUGGCCCAAUGGGGAGCCUCCAGCCACAAGUUCCCUGUCCUUAUCAGCCACUGGGUGGUUCCCACUGCAU | 0.463 |
| UGUAUUAUGACUGCUGGUGGUAAGAGGAAUAUCUUUAAAUUUCUUAUGAAAACAAAUCCACAUUCAUUAUUUCACAUUUGUCUAAGAGGUUAAGUAUCUGAAGGGAGGGU | 0.367 |
| AAAGUAUAACAGGAUUUCUGUAUACUGUGCAAUCAGUUCUUUGAAAAAAAAGUCAAAAGAUAGAGAAUACAAGAAAAGUUUUUGGGAUAUAAUUUGAAUGACUGUGAAAA | 0.644 |
| CCUGCUGGGACCUAUGGAAGGGGCUUCCUGGCCAAGGCCCCCUCUUCCAGAGGAGGAGCAGGGAUCUGGGUUUCCUUUUUUUUUUCUGUUUUGGGUGUACUCUAGGGGCC | 0.385 |
